Measurements from different studies.
Parts stem from different laboratories: compare values within a part only. Values joined by “and” are separate records of one study, mostly repeats; a detail may differ.

Set 1 — cell line: Gaucher fibroblasts L444P/L444P; method: 4-MUG hydrolysis, cell lysate; tested at: 1 µM; baseline: DMSO
SMILES | GCase activity
Ic1ccc(Nc2nc(NCCN3CCOCC3)nc(N3CCNCC3)n2)cc1 | 106% and 108% and 111% and 104% and 102% and 114%
CCOc1ccc2nc(Sc3nc(NCCN4CCOCC4)nc(Nc4ccc(I)cc4)n3)sc2c1 | 109% and 108% and 116% and 92.8%
Ic1ccc(Nc2nc(NCCCN3CCOCC3)nc(N3CCOCC3)n2)cc1 | 164% and 150% and 143% and 171% and 148%
Cc1ccc(Nc2nc(NCCN3CCOCC3)nc(N3CCOCC3)n2)cc1 | 99.5% and 112% and 107% and 114% and 109% and 101%
Ic1ccc(Nc2nc(NCCN3CCOCC3)nc(N3CCCC3)n2)cc1 | 100% and 110% and 90.6%
Ic1ccc(Nc2nc(N3CCOCC3)nc(N3CCOCC3)n2)cc1 | 186% and 134% and 174% and 146% and 190%
Ic1ccc(Nc2nc(NCCN3CCOCC3)nc(N3CCSCC3)n2)cc1 | 98% and 113% and 93.8% and 105%
Ic1cccc(Nc2nc(NCCN3CCOCC3)nc(N3CCOCC3)n2)c1 | 106% and 103% and 112% and 115%

Set 2 — cell line: MDA-MB-468; observed: cell viability; method: CellCounting-Lite; tested at: 74.07 nM; temperature: 37 °C; direction: higher = more viable cells
Structure (SMILES) | luminescence signal
CCCCOc1nc(NCc2nc3cc(Cl)c(Cl)cc3[nH]2)c2ncn(CC)c2n1 | 422000 a.u. and 333000 a.u. and 395000 a.u.
CCn1cnc2c(NCc3nc4cc(Cl)c(Cl)cc4[nH]3)nc(N3CCN(c4ccccn4)CC3)nc21 | 564000 a.u. and 439000 a.u. and 445000 a.u.
CCn1cnc2c(NCc3nc4cc(Cl)c(Cl)cc4[nH]3)nc(N3CCN(C(=O)c4ccccc4)CC3)nc21 | 70000 a.u. and 85200 a.u. and 91000 a.u.
CCn1cnc2c(NCc3nc4cc(Cl)c(Cl)cc4[nH]3)nc(N3CCN(C(=O)[C@H](C)NC(C)=O)CC3)nc21 | 93400 a.u. and 113000 a.u. and 99800 a.u.
CCn1cnc2c(NCc3nc4cc(Cl)c(Cl)cc4[nH]3)nc(N3CCN(C(=O)CNC(C)=O)CC3)nc21 | 31000 a.u. and 34500 a.u. and 36700 a.u.
CCn1cnc2c(NCc3nc4cc(Cl)c(Cl)cc4[nH]3)nc(N3CCN(C(=O)c4cccnc4)CC3)nc21 | 36300 a.u. and 33800 a.u. and 37900 a.u.
CC(=O)N1CCN(c2nc(NCc3nc4cc(Cl)c(Cl)cc4[nH]3)c3ncn(C)c3n2)CC1 | 279000 a.u. and 226000 a.u.
CC(=O)N1CCN(c2nc(NCc3nc4cc(Cl)c(Cl)cc4[nH]3)c3ncn(-c4cnn(C)c4)c3n2)CC1 | 116000 a.u. and 94900 a.u. and 122000 a.u.

Single results of other studies
Structure (SMILES) | tested on | test | system | setting | quantity | result
C#CCN1C(=O)C(O)(C(=O)O)Oc2cc(F)ccc21 (stereo not drawn) | Arabidopsis thaliana | root length | Col-0 | 25.0 µg/mL, 7 days, seed germination, dark | inhibition | 69.6%
Cn1cc(-c2cccc(CN3CCC4(CC3)COc3c4ccc4c3CN([C@H]3CCC(=O)NC3=O)C4=O)c2)cn1 | – | – | cynomolgus monkey, plasma | intravenous, 1 mg/kg | AUC(0-inf) | 949 ng·h/mL

Excerpt of the above (single results of other studies):
Structure (SMILES) | tested on | test | system | setting | quantity | result
C#CCN1C(=O)C(O)(C(=O)O)Oc2cc(F)ccc21 (stereo not drawn) | Arabidopsis thaliana | root length | Col-0 | 25.0 µg/mL, 7 days, seed germination, dark | inhibition | 69.6%
